Measurements collected from several papers.
Every numbered part comes from another study and shows a few of its results, in no order. Changes are numbered by the printed parent chain.

Series 1
Target: Interferon regulatory factor 3, full length, phosphomimetic (IRF3, Homo sapiens, UniProt Q14653, residues 1-427, S386D/S396D/S398D/S402D/T404D/S405D)
Technique: protein-binding microarray
Form: double-stranded DNA, one strand shown
Matrix: in vitro
Tested at: 2540 nM top
Notes: 60-bp whole probe
Added: salmon DNA 0.4 mg/ml
Baseline: random background probes
Direction: higher = stronger binding
Quantity: fitted relative affinity
All sequences stand within: GCCTAGCAC … GTCTTGATTCGCTTGACGCTGCTG
Residues (chain): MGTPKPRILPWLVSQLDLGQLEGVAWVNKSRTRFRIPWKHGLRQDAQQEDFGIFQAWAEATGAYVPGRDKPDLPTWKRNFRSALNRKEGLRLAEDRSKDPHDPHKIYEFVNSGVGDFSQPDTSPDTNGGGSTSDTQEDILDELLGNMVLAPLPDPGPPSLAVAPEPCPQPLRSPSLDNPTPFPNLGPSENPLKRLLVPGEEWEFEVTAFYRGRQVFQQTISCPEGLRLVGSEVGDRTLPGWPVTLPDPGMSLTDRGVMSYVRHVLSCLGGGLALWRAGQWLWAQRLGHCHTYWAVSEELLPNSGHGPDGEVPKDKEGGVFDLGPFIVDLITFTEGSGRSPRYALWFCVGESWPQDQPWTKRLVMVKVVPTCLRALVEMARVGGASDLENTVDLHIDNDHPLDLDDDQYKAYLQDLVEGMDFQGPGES
Strand = CTACACATCTCACTCTAATCGTGCTAG; result = 0.836 z-score
Strand = AACACTCTTCTTTTGCTAATGTGCTAG; result = 0.834 z-score
Strand = TTCTTTATGCACTCTCTACATGTGCTA; result = 0.874 z-score
Strand = TCATACCTCATCTTTCCCACTGTGCTA; result = 1.11 z-score
Strand = TCAACTTTGGCATGTCTTACTGTGCTA; result = -0.204 z-score
Strand = GACGGACTGGGCTATCGGGACGTGCTA; result = -0.857 z-score
Strand = GACGGTATCCTTATGCTGACGTGCTAG; result = 3.95 z-score
Strand = TCATTTATATACCTGAAACTGTGCTAG; result = 1.24 z-score
Strand = TCACTTTCCATTTCTGTTACTGTGCTA; result = 8.9 z-score
Strand = TCAGTCATCTATAATGGAACTGTGCTA; result = 0.0515 z-score
Strand = GACGGTATCCTTCTCGTGACGTGCTAG; result = 7.5 z-score
Strand = TTAGATTTCGGATTTCGATTAGTGCTA; result = 4.61 z-score
Strand = GACGGATTCGGGTTTCGGGACGTGCTA; result = 2.26 z-score
Strand = CCCAGGACCCTGGAACTGGCGTGCTAG; result = -0.655 z-score
Strand = GACTGTCTCGGACTGGGGACGTGCTAG; result = -0.0874 z-score
Strand = TAAGATTTCAGTTCCGATTAGTGCTAG; result = 3.8 z-score
Strand = TTAGGTTTCAGTCTCGGTTAGTGCTAG; result = 5.13 z-score
Strand = TTAGGATTGGACTTTCGGTTAGTGCTA; result = 1.3 z-score
Strand = CCTTATCCCTAATCTCAGCCTGTGCTA; result = 2.22 z-score

Series 2
Target: Sal-like protein 4, full length isoform B (SALL4, Homo sapiens, UniProt Q9UJQ4-2, residues 1-616)
Technique: universal PBM
Form: double-stranded DNA, one strand shown
Matrix: in vitro
Tested at: not given
Notes: 8-mer, flanks averaged, mean of replicates
Direction: higher = stronger binding
Quantity: E-score
Residues (chain): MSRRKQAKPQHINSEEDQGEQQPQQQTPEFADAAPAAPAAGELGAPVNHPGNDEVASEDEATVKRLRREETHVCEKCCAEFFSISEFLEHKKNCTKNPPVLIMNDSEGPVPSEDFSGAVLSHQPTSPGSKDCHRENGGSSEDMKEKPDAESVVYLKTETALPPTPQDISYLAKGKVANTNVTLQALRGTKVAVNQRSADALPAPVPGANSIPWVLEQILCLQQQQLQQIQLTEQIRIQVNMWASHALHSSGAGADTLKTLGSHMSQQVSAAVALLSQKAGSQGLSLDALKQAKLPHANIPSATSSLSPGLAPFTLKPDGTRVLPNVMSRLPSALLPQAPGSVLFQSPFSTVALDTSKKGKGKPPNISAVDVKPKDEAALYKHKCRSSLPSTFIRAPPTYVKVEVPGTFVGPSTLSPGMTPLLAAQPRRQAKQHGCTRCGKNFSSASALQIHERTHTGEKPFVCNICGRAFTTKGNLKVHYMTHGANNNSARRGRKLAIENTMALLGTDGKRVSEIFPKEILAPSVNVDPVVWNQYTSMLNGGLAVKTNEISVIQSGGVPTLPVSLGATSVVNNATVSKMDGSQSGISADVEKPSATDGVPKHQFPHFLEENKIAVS
Strand = CATCAGGA; result = 0.0617
Strand = GATAGTCC; result = 0.0292
Strand = AAACCCTC; result = 0.0154
Strand = ACACCATC; result = 0.0754
Strand = ATTAAACG; result = 0.289
Strand = CACATAAC; result = 0.212
Strand = GAGGGACC; result = -0.246
Strand = GCTGCGCC; result = -0.349
Strand = GACTGGCC; result = -0.316
Strand = CGCTGAAC; result = -0.047
Strand = GTAATCTA; result = 0.298
Strand = GGAGTAAC; result = -0.161
Strand = CACTCCAC; result = -0.114
Strand = AGTGACGC; result = -0.207
Strand = AGCCCGAA; result = -0.225
Strand = ACGGCTTA; result = -0.0615
Strand = GTCACGAC; result = 0.093
Strand = ACGACGCA; result = -0.0123
Strand = GGTTATGA; result = 0.301
Strand = AGCCTGGA; result = -0.319
Strand = ATGCACCC; result = -0.0511
Strand = ATCACCTC; result = 0.0431
Strand = AGGTTATG; result = 0.221
Strand = GCTGAACA; result = -0.0417
Strand = CCAACGAG; result = -0.107

Series 3
Target: Fragile X messenger ribonucleoprotein 1, C-terminal low-complexity region (Fmr1, Mus musculus, UniProt P35922)
Technique: RNA Bind-n-Seq
Form: RNA
Matrix: in vitro
Tested at: 200 nM
Notes: whole 134-nt RNA, ends assumed
Added: 150 mM KCl
Baseline: input library
Direction: higher = stronger binding
Quantity: log2 enrichment
Strand = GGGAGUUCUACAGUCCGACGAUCCCUCAAGUCCUGUGCUACACAUCGUAUGUACCGAAUCGGUUUGGAAAGGUGGAAAGUAUUAUGUUACGCCGUUCGGAUCUGCACUUCCAGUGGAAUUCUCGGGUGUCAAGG; result = 0.161
Strand = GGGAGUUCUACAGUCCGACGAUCGUCCUGUGCUACACAUCGUAUGUACCGAAUCGGGGUUUUUGGGGUUUGGGGAAAGGGGAAAGUAUUAUGUUACGCCGUUCGGAUCUGCACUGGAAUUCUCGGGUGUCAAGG; result = 0.604
Strand = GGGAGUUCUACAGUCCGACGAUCUCCAGUCUAGCUUUGGAGAAGCGCCAACCUGCUCACUGCCGCCGACCAGACUGCAUGUUUGGUUGUACUUGUUUGAAAAGAAAAGUUGUAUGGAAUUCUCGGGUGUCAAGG; result = -0.991
Strand = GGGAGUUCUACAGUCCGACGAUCGUCCUGUGCUACACAUCGUAUGUACCGAAUCGGGUUUUUGGGGUUUUUGGUUUUUGGGAAAGUAUUAUGUUACGCCGUUCGGAUCUGCACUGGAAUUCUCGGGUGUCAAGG; result = -0.222
Strand = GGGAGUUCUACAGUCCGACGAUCCAAGUCCUGUGCUACACAUCGUAUGUACCGAAUCGGUUUUGGUUUUGGGGUUUUGGAAAGUAUUAUGUUACGCCGUUCGGAUCUGCACUUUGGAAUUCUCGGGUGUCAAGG; result = -0.763
Strand = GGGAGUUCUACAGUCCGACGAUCUCAAGUCCUGUGCUACACAUCGUAUGUACCGAAUCGGUUUUUGGUUUGGUUUGGAAAGUAUUAUGUUACGCCGUUCGGAUCUGCACUUCCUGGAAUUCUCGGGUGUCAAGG; result = -0.633
Strand = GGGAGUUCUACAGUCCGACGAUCUGGCCCUGGUGGCAUGCGUGGAGGAAGAGGUGGCCUCAUGGAUCGUGGUGGUCCCGGUGGAAUGUUCAGAGGUGGCCGUGGUGGAGACAGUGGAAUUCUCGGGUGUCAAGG; result = 0.19
Strand = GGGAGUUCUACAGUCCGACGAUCUGGCCCUGGUGGCAUGCGGGGAGGAAGAGGUGGCCUCAUGGAUCGUGGUUGUCCCGGUGGAAUGUUCAGAGGUGGCCGUGGUGGAGACAGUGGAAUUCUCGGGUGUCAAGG; result = 0.0483
Strand = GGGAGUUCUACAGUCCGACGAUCUCCUGUGCUACACAUCGUAUGUACCGAAUCGGGAAAGGGUUUUUUUGGGUUUUUUUGGGAAAGUAUUAUGUUACGCCGUUCGGAUCUGCAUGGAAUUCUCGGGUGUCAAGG; result = -0.0443
Strand = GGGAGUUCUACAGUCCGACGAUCCCUGUGCUACACAUCGUAUGUACCGAAUCGGGGAAAGGGGAAAAAGGGGAAAAAAAGGGGAAAGUAUUAUGUUACGCCGUUCGGAUCUGCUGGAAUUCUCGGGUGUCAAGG; result = 0.0388

Series 4
Target: Histone acetyltransferase KAT6A, winged helix 2, GST fusion (KAT6A, Homo sapiens, UniProt Q92794, residues 85-181)
Technique: protein binding microarray
Form: double-stranded DNA, one strand shown
Matrix: in vitro
Tested at: not given
Notes: 8-mer, flanks averaged, mean of 2 arrays, mostly near background
Baseline: not given
Direction: higher = stronger binding
Quantity: E-score
Target sequence (chain): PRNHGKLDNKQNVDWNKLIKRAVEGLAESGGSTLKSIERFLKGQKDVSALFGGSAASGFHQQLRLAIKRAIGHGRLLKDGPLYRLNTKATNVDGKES
Strand = GTAGAGAA; result = -0.0762
Strand = CCGTTGCG; result = 0.205
Strand = GCACAAAA; result = 0.238
Strand = CAGATCCG; result = 0.255
Strand = ACACTCAA; result = 0.126
Strand = AATTGTAA; result = -0.026
Strand = GACCCTCA; result = 0.0277
Strand = CAGGAGCC; result = 0.0588
Strand = CGGAATGA; result = 0.00914
Strand = CAACAGCA; result = 0.0826
Strand = CCGTATAG; result = 0.0644
Strand = CAATAGCC; result = -0.126
Strand = CATCCTGA; result = 0.0884
Strand = ATGTGAGG; result = 0.0929
Strand = CTCTCAAC; result = 0.0524
Strand = CTTTCTAC; result = -0.0406
Strand = CATCTTGG; result = -0.0636
Strand = CGAGCGAA; result = 0.108
Strand = AGTGACAA; result = 0.0892
Strand = ACTTAGCT; result = -0.187
Strand = ACCACATC; result = -0.0399
Strand = AGCGGGCG; result = 0.158
Strand = AGACAATA; result = -0.0668

Series 5
Target: CCND1, cyclin fold, Cln2 fusion (human)
Technique: yeast growth competition, sequencing
Matrix: yeast
Notes: weak parent motif
Baseline: not given
Direction: higher = stronger binding
Quantity: normalised enrichment score
Starting sequence: E2F8 docking peptide (human); FVPQRKLEVSTED
Change = T11A; result = -0.407
Change = L7A; result = -0.0531
Change = R5K V9F; result = 0.318
Change = E8A; result = -0.143
Change = V9F; result = 0.351
Change = V9A; result = -0.156
Change = R5A; result = 0.00151
Change = K6A; result = -0.101

Some of these lines once more (series 1):
Strand = GACGGTATCCTTATGCTGACGTGCTAG; result = 3.95 z-score
Strand = TCATTTATATACCTGAAACTGTGCTAG; result = 1.24 z-score
Strand = TTAGATTTCGGATTTCGATTAGTGCTA; result = 4.61 z-score
Strand = CCCAGGACCCTGGAACTGGCGTGCTAG; result = -0.655 z-score
Strand = TTCTTTATGCACTCTCTACATGTGCTA; result = 0.874 z-score
Strand = CTACACATCTCACTCTAATCGTGCTAG; result = 0.836 z-score
Strand = GACGGATTCGGGTTTCGGGACGTGCTA; result = 2.26 z-score
Strand = GACTGTCTCGGACTGGGGACGTGCTAG; result = -0.0874 z-score
Strand = GACGGTATCCTTCTCGTGACGTGCTAG; result = 7.5 z-score
Strand = TTAGGTTTCAGTCTCGGTTAGTGCTAG; result = 5.13 z-score
Strand = TCATACCTCATCTTTCCCACTGTGCTA; result = 1.11 z-score
Strand = TCAGTCATCTATAATGGAACTGTGCTA; result = 0.0515 z-score
Strand = TTAGGATTGGACTTTCGGTTAGTGCTA; result = 1.3 z-score
